Measurements of several laboratories.
Protocols differ between the studies behind these lines. Numbers after ± are the reported error.
ADRA2C: Alpha-2C adrenergic receptor (ADRA2C, Homo sapiens, UniProt P18825)
UniProt P18825, sequence (whole entry, looked up): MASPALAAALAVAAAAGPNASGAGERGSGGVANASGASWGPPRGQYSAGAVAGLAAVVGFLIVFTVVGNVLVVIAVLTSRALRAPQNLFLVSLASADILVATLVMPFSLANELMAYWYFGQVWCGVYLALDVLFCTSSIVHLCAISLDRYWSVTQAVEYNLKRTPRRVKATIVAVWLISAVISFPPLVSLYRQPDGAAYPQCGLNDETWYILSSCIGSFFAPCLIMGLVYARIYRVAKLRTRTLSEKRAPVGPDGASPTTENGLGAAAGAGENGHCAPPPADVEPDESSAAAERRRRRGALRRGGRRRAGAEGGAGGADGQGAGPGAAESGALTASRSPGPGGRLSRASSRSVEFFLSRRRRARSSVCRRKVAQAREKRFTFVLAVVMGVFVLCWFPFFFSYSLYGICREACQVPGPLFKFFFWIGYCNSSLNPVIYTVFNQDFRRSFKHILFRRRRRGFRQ
ACHE: Acetylcholinesterase (ACHE, Homo sapiens, UniProt P22303)
UniProt P22303, sequence (whole entry, looked up): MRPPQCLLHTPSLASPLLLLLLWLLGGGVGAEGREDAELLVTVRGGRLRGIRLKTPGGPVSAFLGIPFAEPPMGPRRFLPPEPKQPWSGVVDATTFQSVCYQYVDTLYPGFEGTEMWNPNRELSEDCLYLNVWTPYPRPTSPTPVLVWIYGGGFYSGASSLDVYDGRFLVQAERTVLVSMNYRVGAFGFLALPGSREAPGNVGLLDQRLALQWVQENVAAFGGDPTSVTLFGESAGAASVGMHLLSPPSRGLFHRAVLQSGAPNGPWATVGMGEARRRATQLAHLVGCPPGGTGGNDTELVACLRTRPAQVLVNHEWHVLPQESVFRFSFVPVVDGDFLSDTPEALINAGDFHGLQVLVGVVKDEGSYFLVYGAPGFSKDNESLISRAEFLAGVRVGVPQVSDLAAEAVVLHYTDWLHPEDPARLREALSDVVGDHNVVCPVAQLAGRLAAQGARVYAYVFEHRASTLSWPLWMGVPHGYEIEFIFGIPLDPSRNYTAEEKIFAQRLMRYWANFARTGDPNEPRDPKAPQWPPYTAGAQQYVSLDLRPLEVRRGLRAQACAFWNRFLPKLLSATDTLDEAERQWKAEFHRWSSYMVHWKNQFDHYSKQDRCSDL
HDAC1: Histone deacetylase 1 (HDAC1, Homo sapiens, UniProt Q13547)
UniProt Q13547, sequence (whole entry, looked up): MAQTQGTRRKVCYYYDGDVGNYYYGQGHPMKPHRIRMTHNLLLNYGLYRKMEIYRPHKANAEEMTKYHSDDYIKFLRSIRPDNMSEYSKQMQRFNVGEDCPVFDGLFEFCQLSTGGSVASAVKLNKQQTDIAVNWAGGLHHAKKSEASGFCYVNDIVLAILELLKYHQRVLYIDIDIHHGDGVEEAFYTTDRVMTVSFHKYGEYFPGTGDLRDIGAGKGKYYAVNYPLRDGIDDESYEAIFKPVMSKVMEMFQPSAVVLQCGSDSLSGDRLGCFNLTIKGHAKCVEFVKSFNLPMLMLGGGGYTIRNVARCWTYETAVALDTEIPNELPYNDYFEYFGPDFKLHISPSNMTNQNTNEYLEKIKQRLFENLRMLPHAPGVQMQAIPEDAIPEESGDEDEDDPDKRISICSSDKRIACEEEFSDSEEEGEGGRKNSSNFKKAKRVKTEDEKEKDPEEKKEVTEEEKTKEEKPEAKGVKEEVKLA
lacZ: Beta-galactosidase (lacZ, Escherichia coli K-12, UniProt P00722)
UniProt P00722, sequence (whole entry, looked up): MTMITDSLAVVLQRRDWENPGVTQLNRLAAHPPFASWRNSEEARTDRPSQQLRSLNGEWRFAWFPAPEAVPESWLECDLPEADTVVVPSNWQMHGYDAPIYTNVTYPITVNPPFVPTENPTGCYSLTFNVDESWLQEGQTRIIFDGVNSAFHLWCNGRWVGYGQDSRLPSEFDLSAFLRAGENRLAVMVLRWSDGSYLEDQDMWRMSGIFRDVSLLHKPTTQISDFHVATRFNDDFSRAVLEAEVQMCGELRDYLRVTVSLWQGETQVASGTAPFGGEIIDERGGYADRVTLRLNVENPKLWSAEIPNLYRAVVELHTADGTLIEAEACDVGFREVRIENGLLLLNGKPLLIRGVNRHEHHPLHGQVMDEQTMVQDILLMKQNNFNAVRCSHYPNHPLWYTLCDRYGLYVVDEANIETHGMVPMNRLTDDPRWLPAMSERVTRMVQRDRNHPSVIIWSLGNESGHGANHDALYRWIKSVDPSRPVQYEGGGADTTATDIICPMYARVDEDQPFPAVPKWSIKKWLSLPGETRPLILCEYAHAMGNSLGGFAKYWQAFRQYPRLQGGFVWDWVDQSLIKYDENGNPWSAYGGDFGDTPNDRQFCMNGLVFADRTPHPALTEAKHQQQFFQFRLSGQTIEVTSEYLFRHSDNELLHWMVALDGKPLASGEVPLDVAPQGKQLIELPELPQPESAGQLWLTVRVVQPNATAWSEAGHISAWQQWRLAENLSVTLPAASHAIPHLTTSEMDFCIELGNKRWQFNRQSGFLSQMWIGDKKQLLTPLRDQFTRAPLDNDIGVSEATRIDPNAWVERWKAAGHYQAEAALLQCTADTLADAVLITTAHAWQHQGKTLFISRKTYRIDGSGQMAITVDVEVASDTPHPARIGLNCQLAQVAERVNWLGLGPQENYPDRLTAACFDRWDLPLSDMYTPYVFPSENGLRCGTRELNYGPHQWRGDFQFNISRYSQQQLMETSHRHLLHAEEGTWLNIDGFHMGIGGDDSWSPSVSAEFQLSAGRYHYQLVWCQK
UniProt O05701, sequence (whole entry, looked up): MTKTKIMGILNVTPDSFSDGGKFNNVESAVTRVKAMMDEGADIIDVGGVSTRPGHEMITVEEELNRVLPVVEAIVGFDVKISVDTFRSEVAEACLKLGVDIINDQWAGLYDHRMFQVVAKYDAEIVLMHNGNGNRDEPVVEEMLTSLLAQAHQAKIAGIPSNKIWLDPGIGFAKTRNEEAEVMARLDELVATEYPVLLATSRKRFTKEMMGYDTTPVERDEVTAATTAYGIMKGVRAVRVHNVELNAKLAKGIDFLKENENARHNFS
UniProt P14416, sequence (whole entry, looked up): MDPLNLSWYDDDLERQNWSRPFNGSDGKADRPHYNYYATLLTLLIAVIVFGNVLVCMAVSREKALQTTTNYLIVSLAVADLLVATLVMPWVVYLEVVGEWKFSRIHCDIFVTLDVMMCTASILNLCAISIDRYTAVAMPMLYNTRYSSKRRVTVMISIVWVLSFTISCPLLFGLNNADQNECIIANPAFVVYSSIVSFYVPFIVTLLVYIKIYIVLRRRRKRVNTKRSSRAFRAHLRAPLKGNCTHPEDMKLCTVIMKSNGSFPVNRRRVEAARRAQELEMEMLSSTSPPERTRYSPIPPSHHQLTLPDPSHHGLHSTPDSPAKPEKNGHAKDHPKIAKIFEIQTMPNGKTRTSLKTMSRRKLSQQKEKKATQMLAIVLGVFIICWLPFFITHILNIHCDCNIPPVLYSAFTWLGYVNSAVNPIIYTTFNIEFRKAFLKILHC
UniProt Q9UHK6, sequence (whole entry, looked up): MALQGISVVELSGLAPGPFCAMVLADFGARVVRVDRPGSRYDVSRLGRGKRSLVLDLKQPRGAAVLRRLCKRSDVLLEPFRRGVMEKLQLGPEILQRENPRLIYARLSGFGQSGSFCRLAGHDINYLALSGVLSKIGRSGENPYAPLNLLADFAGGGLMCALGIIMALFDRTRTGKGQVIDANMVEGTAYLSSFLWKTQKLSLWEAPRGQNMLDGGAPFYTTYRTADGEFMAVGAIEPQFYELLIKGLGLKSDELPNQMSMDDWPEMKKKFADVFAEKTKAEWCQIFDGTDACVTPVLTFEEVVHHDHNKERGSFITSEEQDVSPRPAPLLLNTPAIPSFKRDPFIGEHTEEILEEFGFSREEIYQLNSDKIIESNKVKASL
UniProt Q8N695, sequence (whole entry, looked up): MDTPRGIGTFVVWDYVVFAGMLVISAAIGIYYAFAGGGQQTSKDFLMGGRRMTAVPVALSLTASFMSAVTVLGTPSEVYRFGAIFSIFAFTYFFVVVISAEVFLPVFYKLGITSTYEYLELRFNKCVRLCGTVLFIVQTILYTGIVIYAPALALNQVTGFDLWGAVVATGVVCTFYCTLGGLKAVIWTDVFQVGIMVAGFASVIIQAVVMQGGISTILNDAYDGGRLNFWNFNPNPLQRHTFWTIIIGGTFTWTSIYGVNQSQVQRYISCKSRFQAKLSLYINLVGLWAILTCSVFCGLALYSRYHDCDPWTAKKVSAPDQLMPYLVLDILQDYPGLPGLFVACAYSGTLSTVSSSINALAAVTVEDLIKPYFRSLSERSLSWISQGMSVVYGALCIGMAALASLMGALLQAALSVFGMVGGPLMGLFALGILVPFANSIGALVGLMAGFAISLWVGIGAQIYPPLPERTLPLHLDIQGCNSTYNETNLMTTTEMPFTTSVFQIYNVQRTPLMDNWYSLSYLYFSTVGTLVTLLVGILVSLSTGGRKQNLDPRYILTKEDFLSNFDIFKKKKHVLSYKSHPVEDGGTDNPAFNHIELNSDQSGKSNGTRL
UniProt Q869C3, sequence (whole entry, looked up): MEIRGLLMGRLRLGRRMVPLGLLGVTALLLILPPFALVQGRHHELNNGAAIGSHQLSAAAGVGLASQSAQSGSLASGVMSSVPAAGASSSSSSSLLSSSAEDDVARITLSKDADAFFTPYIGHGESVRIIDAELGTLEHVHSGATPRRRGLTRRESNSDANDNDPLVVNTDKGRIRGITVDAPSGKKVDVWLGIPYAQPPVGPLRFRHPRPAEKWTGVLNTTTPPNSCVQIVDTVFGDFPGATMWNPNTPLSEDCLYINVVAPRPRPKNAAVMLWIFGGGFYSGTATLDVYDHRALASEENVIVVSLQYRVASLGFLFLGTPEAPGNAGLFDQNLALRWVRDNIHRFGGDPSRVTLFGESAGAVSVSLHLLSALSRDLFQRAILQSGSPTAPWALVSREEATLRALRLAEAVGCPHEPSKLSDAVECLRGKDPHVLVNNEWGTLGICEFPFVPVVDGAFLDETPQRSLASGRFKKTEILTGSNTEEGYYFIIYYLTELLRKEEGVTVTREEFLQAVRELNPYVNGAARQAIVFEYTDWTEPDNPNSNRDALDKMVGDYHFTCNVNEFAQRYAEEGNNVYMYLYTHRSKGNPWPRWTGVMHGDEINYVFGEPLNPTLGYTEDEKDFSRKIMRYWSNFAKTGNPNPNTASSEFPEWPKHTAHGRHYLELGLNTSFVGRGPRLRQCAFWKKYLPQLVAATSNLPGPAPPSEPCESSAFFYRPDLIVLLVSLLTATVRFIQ

For `Cc1cccc(Nc2ccc3c(c2)C(c2ccccc2F)=NC(C)C(=O)N3)c1` (stereo not drawn), the inhibition was 69% (ADRA2C; ligand displacement, radioligand; 10 µM).
`C/C=C(/C)C(=O)O[C@H]1C(C)=C2[C@H]([C@@H]1OC(=O)CCCCCCC)[C@@](C)(OC(C)=O)C[C@H](OC(=O)CCC)[C@@]1(O)[C@H]2OC(=O)[C@@]1(C)O` has an inhibition of greater than 90% (Sarcoplasmic/endoplasmic reticulum calcium ATPase 1 (ATP2A1, Oryctolagus cuniculus, UniProt P04191); Ca2+-ATPase activity, inhibitor; rabbit muscle microsomes; 20 µM).
`NCc1ccc(C(F)(F)F)cc1`: inhibition “no inhibition” (folP (Staphylococcus aureus, UniProt O05701); enzyme activity; 250 µM).
`O=C(c1ccc2c(c1)c1ccccc1n2CCN1CCOCC1)c1ccnc2ccccc12` gave an inhibition of roughly 15% (Cannabinoid receptor 1 (CNR1, Homo sapiens, UniProt P21554); forskolin-stimulated cAMP, BRET biosensor; HEK293 expressing human CB1; 10 µM).
For `Cc1ccc(/C=C/C(=O)c2ccc(OCc3ccccc3)cc2)cc1`, the inhibition was 84.3% (ACHE; enzyme activity, inhibitor; concentration not given).
For `O=C(Oc1ccc([N+](=O)[O-])cc1)N1CCC(C(O)(c2ccc3c(c2)OCO3)c2ccc3c(c2)OCO3)CC1`, the inhibition was greater than 80% (Monoglyceride lipase (Mgll, Mus musculus, UniProt O35678); 2-AG hydrolysis; mouse, brain membranes; intraperitoneal, 16 mg/kg, 24 h).
`CC(C)(C)c1cnc(CSc2cnc(NC(=O)C3CCNCC3)s2)o1` gave an inhibition of greater than 50% (Cyclin-dependent kinase 6 (CDK6, Homo sapiens, UniProt Q00534); probe labeling, KiNativ live-cell profiling; MOLT-4; 0.25 µM).
`O=C(Nc1ccccc1)c1coc(-c2ccccc2O)n1` has an inhibition of greater than 50% (HDAC1; enzyme activity, inhibitor; 20 µM).
`CC1N=C(c2ccccc2F)c2cc(Nc3ccc(C(F)(F)F)cc3)ccc2NC1=O` (stereo not drawn) gave an inhibition of 34% (ADRA2C; ligand displacement, radioligand; 10 µM).
The inhibition of `CCN1C(=O)C=CC1=O` is reported as 45 ± 2% (Acetylcholinesterase (Ace, Anopheles gambiae, UniProt Q869C3); enzyme activity; 100 µM, 30 min, before dilution).
With `CC1N=C(c2ccccc2F)c2cc(N(C)c3ccccc3)ccc2NC1=O` (stereo not drawn) the inhibition was 15% (ADRA2C; ligand displacement, radioligand; 10 µM).
`O=C(O)C(=O)CBr` has an inhibition of 96% (SLC5A8 (Homo sapiens, UniProt Q8N695); nicotinate uptake; HRPE expressing SLC5A8; 1 mM, 15 min, human, added: [14C]nicotinate 15 µM).
`O=C(O)[C@@H]1CCCN1C(=O)OCC1c2ccccc2-c2ccccc21` gave an inhibition of no more than 10% (Cholinesterase (BCHE, Equus caballus, UniProt P81908); enzyme activity, Ellman method; 200 µM, 2% methanol).
With `C=C(C)[C@H](CC=C(C)C)Cc1c(O)cc(OC)c2c1O[C@H](c1ccc(O)cc1O)CC2=O` the inhibition was greater than 70% (D(2) dopamine receptor (DRD2, Homo sapiens, UniProt P14416); 50 µM).
`CC1N=C(c2ccccc2F)c2cc(Nc3ccc(O)cc3)ccc2NC1=O` (stereo not drawn) has an inhibition of 29% (ADRA2C; ligand displacement, radioligand; 10 µM).
`Cc1cc2c(cc1Cl)N(C(=O)Nc1ccc(Oc3cccnc3C)nc1)CC2` gave an inhibition of 86.5% (5-hydroxytryptamine receptor 2C (HTR2C, Homo sapiens, UniProt P28335); 5-HT-stimulated IP-1 formation, antagonist; cells expressing HTR2C; 1 µM, added: 5-HT 100 nM; baseline: maximal inhibition).
The inhibition of `Cc1n[nH]c(C)c1S(=O)(=O)N1CCC(C(=O)N2CCn3c2nc2ccccc23)CC1` is reported as 40% (lacZ; concentration not given).
`CSc1ccc(Nc2ccc3c(c2)C(c2ccccc2F)=NC(C)C(=O)N3)cc1` (stereo not drawn) has an inhibition of 69% (ADRA2C; ligand displacement, radioligand; 10 µM).
With `Cn1c(=O)c2c(ncn2CC(=O)N/N=C/c2ccc3c(c2)OCO3)n(C)c1=O` the inhibition was 73.6% (ACHE; enzyme activity, inhibitor, Ellman; 25 µM).
`O=C(O)c1ccc(CNC(=O)c2coc(-c3ccccc3O)n2)cc1` gave an inhibition of greater than 50% (HDAC1; enzyme activity, inhibitor; 20 µM).
For `Cn1c(=O)c2c(ncn2CC(=O)OCc2cn(-c3cc(=O)oc4ccccc34)nn2)n(C)c1=O`, the inhibition was greater than 75% (ACHE; enzyme activity, inhibitor, Ellman; 25 µM).
`Cc1nc2sccn2c(=O)c1CCN1CCC(=C(c2ccccc2)c2ccc(F)cc2)CC1` has an inhibition of 99.9% (5-hydroxytryptamine receptor 2A (HTR2A, Homo sapiens, UniProt P28223); agonist response, antagonist; 10 µM, added: reference agonist at EC90).
The inhibition of `Cn1c(=O)c2c(ncn2CC(=O)O)n(C)c1=O` is reported as 6.5% (ACHE; enzyme activity, inhibitor, Ellman; 25 µM).
The inhibition of `O=C([O-])c1c(Cl)c(Cl)c(Cl)c(Cl)c1-c1c2cc(I)c(=O)c(I)c-2oc2c(I)c([O-])c(I)cc12.[Na+].[Na+]` is reported as no less than 20% (Alpha-methylacyl-CoA racemase (AMACR, Homo sapiens, UniProt Q9UHK6); enzyme activity, inhibitor, tritiated water release; 100 µM, 30 min, 37 °C, high-throughput screen, added: [2,3-3H]pristanoyl-CoA).
With `CC1N=C(c2ccccc2F)c2cc(Nc3ccc(S(C)(=O)=O)cc3)ccc2NC1=O` (stereo not drawn) the inhibition was 7% (ADRA2C; ligand displacement, radioligand; 10 µM).
The inhibition of `O=C(C1CCN(S(=O)(=O)c2cnc[nH]2)CC1)N1CCn2c1nc1ccccc12` is reported as 35% (lacZ; concentration not given).
`CC1N=C(c2ccccc2F)c2cc(Nc3ccccc3C#N)ccc2NC1=O` (stereo not drawn) has an inhibition of 34% (ADRA2C; ligand displacement, radioligand; 10 µM).
With `CN[C@@](C)(C[18F])C(=O)O` the tracer uptake was 1.4 %ID/g (DU-145 tumour model; host not given, lung; 1 h, tumour-bearing).
`O=C(NC(c1ccccc1)c1ccccc1)c1coc(-c2ccccc2O)n1` has an inhibition of greater than 50% (HDAC1; enzyme activity, inhibitor; 20 µM).
With `CC1N=C(c2ccccc2F)c2cc(N3CCCCC3)ccc2NC1=O` (stereo not drawn) the inhibition was 31% (ADRA2C; ligand displacement, radioligand; 10 µM).

A few entries again:
The inhibition of `CCN1C(=O)C=CC1=O` is reported as 45 ± 2% (Acetylcholinesterase (Ace, Anopheles gambiae, UniProt Q869C3); enzyme activity; 100 µM, 30 min, before dilution).
With `CC1N=C(c2ccccc2F)c2cc(N(C)c3ccccc3)ccc2NC1=O` (stereo not drawn) the inhibition was 15% (ADRA2C; ligand displacement, radioligand; 10 µM).
`O=C(O)C(=O)CBr` has an inhibition of 96% (SLC5A8 (Homo sapiens, UniProt Q8N695); nicotinate uptake; HRPE expressing SLC5A8; 1 mM, 15 min, human, added: [14C]nicotinate 15 µM).
